# Experimental data of several laboratories.
# Numbered parts are unrelated; each lists some results of a single study. Positions count from the first letter of the parent shown.

# Series 1 — technique: competition protein-binding microarray; form: double-stranded DNA, one strand shown; matrix: in vitro; tested at: 2 µM; added: Cbf1 competitor, 0.05 µM; direction: higher = stronger binding; all sequences stand within: … GTCTTGATTCGCTTGACGCTGCTG
# Target: Phosphate system positive regulatory protein PHO4, full length, GST-tagged (PHO4, Saccharomyces cerevisiae, UniProt P07270, residues 1-312)
# Notes: whole 60-bp probe, lowest competitor level
# Target sequence (chain): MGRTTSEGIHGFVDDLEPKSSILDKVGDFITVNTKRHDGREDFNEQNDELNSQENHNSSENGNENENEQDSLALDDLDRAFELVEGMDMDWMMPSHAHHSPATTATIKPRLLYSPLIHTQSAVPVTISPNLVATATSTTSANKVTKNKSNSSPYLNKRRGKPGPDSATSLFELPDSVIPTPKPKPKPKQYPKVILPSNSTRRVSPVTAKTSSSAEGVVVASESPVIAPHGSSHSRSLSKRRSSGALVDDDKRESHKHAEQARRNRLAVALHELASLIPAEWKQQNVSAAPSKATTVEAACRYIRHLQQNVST
Sequence,fluorescence intensity [a.u.]
CGGGCATGTTTCCGTCACATGATGGGATGGCGATGT,10000
GTAACTGATGAGTACCATGTGTTTAACGATCTTGAG,10300
AAAGCGGTAATTTGCGGGGTGGGTGCAGATATCTAT,5070
TAAGAAAATACCGGTCATATGACAACAGAGACAAGA,3340
AAAGCGGTAATTTTTCACGTGACATCACATATCTAT,12500
CTTCTGTAAATTTGTGGCGTGGGTGGACGCGCCCCG,6410
CTAACGAAGGTTTGGGACGTGGGTGACAAGCCAAGT,6950
TAGTTTGTCGCCCGTCACGTGCGATAATGCAAAATA,15500

# Series 2 — target: CCNB1, cyclin fold, Cln2 fusion (human); technique: yeast growth competition, sequencing; matrix: yeast; notes: strong parent motif; reference: not given; direction: higher = stronger binding
# Parent: CCP110 docking peptide (human); EKVKRRLDLDIDG
Change,normalised enrichment score
EKVKRRLALDIDG [D8A],0.415
EKVKRRLDLAIDG [D10A],1.61
EKVKRRLDLDIAG [D12A],0.482
EKAKRRLDLDIDG [V3A],0.179
EKVKRRLDFDIDG [L9F],5.24
EKVKRRADLDIDG [L7A],-0.297
EKVKRRLDLDIDA [G13A],1.45

# Series 3 — technique: protein binding microarray; form: double-stranded DNA, one strand shown; matrix: in vitro; tested at: not given; reference: not given; direction: higher = stronger binding
# Target: Histone acetyltransferase KAT6A, winged helix 1, GST fusion (KAT6A, Homo sapiens, UniProt Q92794, residues 1-85)
# Notes: 8-mer, flanks averaged, mean of 2 arrays, mostly near background
# Residues (chain): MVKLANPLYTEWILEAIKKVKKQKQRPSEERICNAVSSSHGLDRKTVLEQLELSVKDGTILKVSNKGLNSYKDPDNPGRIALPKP
Sequence,E-score
AGCAGCTA,-0.27
AGACTGCA,-0.18
AACCACCT,-0.206
CAATTGTC,-0.0933
GGAGGGAC,-0.00826
CCAACGGG,0.212
GCCGGGCA,0.362
AAGTGGTA,-0.243
GGATCCAC,0.0854
AGTATTTA,-0.173

# Further values, each from its own experiment
Molecule,target,test,system,setting,how to read,measurement,value
"PhoQ, residues 284 288 289 292 302 303 SACGEM","PhoP, residues 12 14 15 18 19 HEGLL (Escherichia coli, UniProt P23836)","Sort-seq, refers to: YFP reporter",E. coli,"PhoQ-PhoP variant library, added: 10 µM Mg2+","reference: high Mg2+ state, higher = stronger signaling",fold induction,1.44

# Repeated from above (series 3):
Sequence,E-score
CAATTGTC,-0.0933
GGAGGGAC,-0.00826
CCAACGGG,0.212
GCCGGGCA,0.362
